Experimental data collected from several papers.
Each numbered part is a random draw from the data of one study; scales do not carry over between parts.

Sample 1
Target: Ras GTPase-activating protein-binding protein 1, RRM domain (G3BP1, Homo sapiens, UniProt Q13283)
Sequence of UniProt Q13283 (whole entry, looked up): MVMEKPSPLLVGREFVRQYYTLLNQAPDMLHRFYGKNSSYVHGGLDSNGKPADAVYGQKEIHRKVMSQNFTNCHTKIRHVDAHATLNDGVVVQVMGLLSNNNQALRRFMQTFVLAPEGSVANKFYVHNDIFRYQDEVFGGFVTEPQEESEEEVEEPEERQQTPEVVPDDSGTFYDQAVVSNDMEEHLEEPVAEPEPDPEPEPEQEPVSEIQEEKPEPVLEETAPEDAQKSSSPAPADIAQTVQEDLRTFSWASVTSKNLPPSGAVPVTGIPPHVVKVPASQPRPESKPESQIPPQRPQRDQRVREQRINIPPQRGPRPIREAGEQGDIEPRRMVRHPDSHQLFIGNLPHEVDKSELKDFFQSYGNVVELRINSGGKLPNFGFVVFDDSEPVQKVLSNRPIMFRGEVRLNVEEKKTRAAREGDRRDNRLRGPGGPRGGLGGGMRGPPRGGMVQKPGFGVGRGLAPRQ
Technique: RNA Bind-n-Seq
Molecule type: RNA
Sample: in vitro
Concentration: 1 µM
Setting: whole 134-nt RNA, ends assumed
Together with: 150 mM KCl
Relative to: input library
Reading: higher = stronger binding
Constant ends, left off below: GGGAGUUCUACAGUCCGACGAUC … UGGAAUUCUCGGGUGUCAAGG
The log2 enrichment of `GUCCUGUGCUACACAUCGUAUGUACCGAAUCAAAUUUUUAAAUUUAAACCCCCCCAAAAAAGUAUUAUGUUACGCCGUUCGGAUCUGCAC` is reported as -1.08.
The log2 enrichment of `CCUGUGCUACACAUCGUAUGUACCGAAUCGGGGAGGGGAAAAAAAGGGGUUUUUUUGGGGAAAGUAUUAUGUUACGCCGUUCGGAUCUGC` is reported as 0.572.
With `UGGCCCUGGUGGCAUGCGGGGAGGAAGAGGUGGCCUCAUGGAUCGUGGUGGUCCCGGUGGAAUGUUCAGAGGUGGCCGUGAUGGAGACAG` the log2 enrichment was 1.42.
For `UCCUGUGCUACACAUCGUAUGUACCGAAUCAAAUUUUUUUAAAUUUUUUUAAAUUUAAAAAAGUAUUAUGUUACGCCGUUCGGAUCUGCA`, the log2 enrichment was -0.255.
The log2 enrichment of `CAAGUCCUGUGCUACACAUCGUAUGUACCGAAUCGGGGCCCGGGCCCGGGCCCGGGAAAGUAUUAUGUUACGCCGUUCGGAUCUGCACUU` is reported as -0.981.
For `AGUCCUGUGCUACACAUCGUAUGUACCGAAUCAAACCCAAACCCCCCCAAAUUUAAAAAAGUAUUAUGUUACGCCGUUCGGAUCUGCACU`, the log2 enrichment was -0.118.
With `ACCACGCAGGUGGGCAUCUUUGGGAAGUGGGGCAAGGGGGGGAUAGGGAGGGGGGUAACACUUUGGGAACAGGUGGUCCCAGGUCGUUUC` the log2 enrichment was -0.47.
With `AAGUCCUGUGCUACACAUCGUAUGUACCGAAUCGGUUUUGGGGUUUUGGGUUUUGGAAAGUAUUAUGUUACGCCGUUCGGAUCUGCACUU` the log2 enrichment was -0.254.
The log2 enrichment of `UCAAGUCCUGUGCUACACAUCGUAUGUACCGAAUCGGGGAAGGGGAAGGGAAGGGAAAGUAUUAUGUUACGCCGUUCGGAUCUGCACUUC` is reported as 0.881.

Sample 2
Target: RING finger protein unkempt homolog, zinc fingers 1-6, GST-SBP tag (UNK, Homo sapiens, UniProt Q9C0B0, residues 30-357)
Technique: RNA Bind-n-Seq
Molecule type: RNA
Sample: in vitro
Concentration: not given
Setting: RNA with constant flanks, human and mouse sites, ends assumed
Relative to: input RNA pool
Reading: higher = stronger binding
Constant ends, left off below: GGGAGUUCUACAGUCCGACGAUC … CAACAGAGGAUUGAGCAUCA
Target sequence (chain): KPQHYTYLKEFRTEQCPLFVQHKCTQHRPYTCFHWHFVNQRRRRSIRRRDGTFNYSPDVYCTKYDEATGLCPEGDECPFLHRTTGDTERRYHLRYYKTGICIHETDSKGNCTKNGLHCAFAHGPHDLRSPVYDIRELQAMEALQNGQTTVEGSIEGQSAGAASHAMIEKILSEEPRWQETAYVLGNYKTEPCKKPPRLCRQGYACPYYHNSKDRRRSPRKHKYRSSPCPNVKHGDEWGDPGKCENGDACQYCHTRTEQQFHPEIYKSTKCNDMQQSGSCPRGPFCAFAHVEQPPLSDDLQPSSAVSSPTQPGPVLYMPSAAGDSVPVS
For `CCUGCAAUUGUUCAUAUUAACCACCAGCCAUACUUGGAAAGGGGAGAUGGCCCAAUCUGUCUAGUUCUGGCUCCUACCAGAGAGCUUGCCCAGCAAGUACAGCAGGUGGCCGAUGACUAU`, the bound/input enrichment was 0.202 ratio.
`GAGAGCCCCACCACCCCUCUGCUGGACGAUGUGGACGACUCUCAAGACAGCCCUAUCUUUAUGUACGCCCCUGAGUUCCAGUUCAUGCCCCCACCCACUUACACUGAGGUGGAUCCGUGC` gave a bound/input enrichment of 0.137 ratio.
The bound/input enrichment of `AGAUACUUGCAAAAUAGAUCUCGAAUUCAGGUGUGGCUGUAUGAACAAGUGAAUAUGCGGAUAGAAGGUUGUAUUAUUGGCUUUGAUGAGUACAUGAACCUCGUAUUAGAUGAUGCAGAA` is reported as 0.726 ratio.
For `CUGAUAAAUGGUUUUGGAUCUUCUUCAGAGGGUUCCUCAGAGAAGCAAUCAAACUCCACUCUUUCUUUUGACUGGAGCCAACCAAGUGUUGUGUUUCAGGAUGACUCUUUAGAGUUAAAA`, the bound/input enrichment was 0.101 ratio.
`UCUUGUGGAGGGUGAGUUUUACAAGGAUGUUGUGGCAAAAGUUUUUUGUCGGUUUUUGAACCUUUUCUGGAAAGACAGUCUUGUCUGGGCAGACUUGGAUUUCAGGACUCAAGGCACACU` gave a bound/input enrichment of 0.142 ratio.
For `CCACCUCUAGCUUUCUUCCUACCCCAUUCCCGGCUUCCCUCCUCCUCCCCUGCAGCCUGGUUAGGUGGAUACCUGCCCUGACAUGUGAGGCAAGCUAAGGCCUGGAGGGUCAGAUGGGAG`, the bound/input enrichment was 0.324 ratio.
With `GGAAGAUAAGAUUUCUGUCUACUAAGUGAUGCUGUGAUACCUUAGGCACUAAAGCAGAGCUAGUAAUGCUUUUUGAGUUUCAUGUUGGUUUAUUUUCACAGAUUGGGGUAACGUGCACUG` the bound/input enrichment was 0.204 ratio.
`AAGAGCAGGGGGAGUAAUUUCAGUGCAAGUCAGAGCACUGACGACAACCUCCCAAACACCACCAGUGACUGUAGGCUCGAGGGCGAGGCCCCUUAUCUGUUGAGUCCAGAGGCUGGGCCA` gave a bound/input enrichment of 0.091 ratio.

Sample 3
Target: RNA binding protein fox-1 homolog 2, RRM domain, GST-SBP tag (RBFOX2, Homo sapiens, UniProt O43251-10, residues 100-194)
Technique: RNA Bind-n-Seq
Molecule type: RNA
Sample: in vitro
Concentration: 365 nM
Setting: natural RNA segment, single round, ends assumed
Relative to: no-protein control
Reading: higher = stronger binding
Constant ends, left off below: GGGAGUUCUACAGUCCGACGAUC … UGGAAUUCUCGGGUGCCAA
Construct (chain): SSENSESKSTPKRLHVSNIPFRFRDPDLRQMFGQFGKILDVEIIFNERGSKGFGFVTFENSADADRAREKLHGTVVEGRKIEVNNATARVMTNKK
Under “RBNS enrichment (R)”, `GCUACUCAGGAGGCUGAGGCAGGAGAAUCGCUUGAACCCGGAAGGCAGAGGUUGCAGUGAGCUGAGAUUGUGCCACUGCACGCCAGCCUGGGCAAGAGAGUAAGACUCUC` is recorded as 1.61.
Under “RBNS enrichment (R)”, `UCCCUUCUUAAAGCCAACAGGCUCAGUUUACAAACCUGUGAGCUACUGUUGGCUGCUGCCCUCCUUCCCAGUGAAAGGUACAAAGCAAUAAGCAUCAUGCAUCCUCCCCU` is recorded as 2.35.
`CGUGUGCGUGCGUGUUAGUGUGUGUGCAUGUGUGUGUCUGUCUUUGUGGGAGGGUAAGACAAUAUGAACAAACUAUGAUCACAGUGACUUUACAGGAGGUUGUGGAUGCU`: “RBNS enrichment (R)” 1.58.
For `ACAGCUCUGGUAGCAAAACCAGUCCCCUACCCCCUAGAGAAUGCAUCCGUUUCCCCACCUGAUAUGGUUUGGCUGUGUCCCCACCUAAAACUCAUCUUGAAUUGUAGCUC`, “RBNS enrichment (R)” read 1.46.
`UGUGGAUGGCUUGAAGACUACUGAUGCUUUCCUCUGAAUUGUUCUUUGCACUGAAGGAGGACUUGGACUGACCUCCGACUUACAUAGUUUGUUAAGAGCUGUCUUUAGCA` — result for “RBNS enrichment (R)”: 1.3.
`GGCGUGGCCCCUGCCAACAGGCUGGGGUUGGGAGGCCUCUCUGGGCCUGGAGGUGGGGGUGGGGGCAGCCAAGUCCAGCCACUCUUCACCUGGCUCCCUGCUCUGGGCCC`: “RBNS enrichment (R)” 0.159.
Under “RBNS enrichment (R)”, `CUGCAGUGUCUCAUCUCAUAGACUGUGAACCUGUAUAUUAUUCAAAUGGCUACAGAUAAUGCUCUUUUCUUUUGUGAGGUCUCUUCAUUUAAUGCACUGCCCAGAAAGAG` is recorded as 0.658.
For `ACUUCCUCUUCUCCGCCCUCAGCUUUCCUCUCAUGUGGCAAACGUGCGACUCUGUGGUCCUGAGUGCCAGAAGCUGUCUCCAUGGGUUGGUCACAGUGUGCAUCGCACCG`, “RBNS enrichment (R)” read 0.374.

Sample 4
Target: Interferon regulatory factor 7, full length, phosphomimetic (IRF7, Homo sapiens, UniProt Q92985, residues 1-503, S471D/S472D/S475D/S476D/S477D/S483D/S484D/S487D)
Technique: protein-binding microarray
Molecule type: double-stranded DNA, one strand shown
Sample: in vitro
Concentration: 2200 nM top
Setting: 60-bp whole probe
Together with: salmon DNA 0.4 mg/ml
Relative to: random background probes
Reading: higher = stronger binding
Constant ends, left off below: GCCTAGCAC … GTCTTGATTCGCTTGACGCTGCTG
Target sequence (chain): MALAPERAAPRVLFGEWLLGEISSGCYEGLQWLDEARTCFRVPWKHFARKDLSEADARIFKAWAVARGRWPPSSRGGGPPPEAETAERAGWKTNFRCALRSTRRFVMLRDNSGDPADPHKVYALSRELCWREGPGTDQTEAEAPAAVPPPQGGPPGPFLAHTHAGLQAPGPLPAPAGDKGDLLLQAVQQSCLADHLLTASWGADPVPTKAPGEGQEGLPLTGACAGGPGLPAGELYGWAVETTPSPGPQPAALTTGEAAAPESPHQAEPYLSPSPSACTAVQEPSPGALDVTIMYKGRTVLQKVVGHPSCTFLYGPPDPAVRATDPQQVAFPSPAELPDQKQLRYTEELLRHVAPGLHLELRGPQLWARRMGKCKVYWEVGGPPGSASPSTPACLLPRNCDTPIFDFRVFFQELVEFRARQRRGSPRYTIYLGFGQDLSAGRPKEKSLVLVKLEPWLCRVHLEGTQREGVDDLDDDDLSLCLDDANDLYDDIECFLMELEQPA
`GACGGACTGGACACTGGGGATGTGCTA` — result for “fitted relative affinity”: -0.754 z-score.
Under “fitted relative affinity”, `GTTGAGTTCTGTTGCAAAGGGTGCTAG` is recorded as 0.517 z-score.
For `TCAGGTATAAACTTGGGACTGTGCTAG`, “fitted relative affinity” read -0.431 z-score.
`GACGGTATAGGACTGGGGACGTGCTAG`: “fitted relative affinity” -0.352 z-score.
For `TCATGTATATATGTGTAACTGTGCTAG`, “fitted relative affinity” read 0.924 z-score.
For `GACTAACTGAGTTTCGAGACGTGCTAG`, “fitted relative affinity” read 2.09 z-score.
`GACGAACTGGGGTTTCTAGACGTGCTA` — result for “fitted relative affinity”: 0.407 z-score.
For `TTAGGTTTCGGTATCGGTTAGTGCTAG`, “fitted relative affinity” read 7.68 z-score.
`AACGGTATCGGGTTTCGGGACGTGCTA`: “fitted relative affinity” 1.88 z-score.
Under “fitted relative affinity”, `CAAGGAACTCAGAGATTTAAGTGCTAG` is recorded as -1.25 z-score.
`TCATCTCTGCTCTTTTCAACTGTGCTA`: “fitted relative affinity” 1.7 z-score.
`GACGAGATCAGACTGGAGACGTGCTAG`: “fitted relative affinity” -0.324 z-score.
For `GAGTGCTGGGATTACAGGCAGTGCTAG`, “fitted relative affinity” read -0.18 z-score.
`TTAGATTTCAGTTTCTATTAGTGCTAG`: “fitted relative affinity” 4.03 z-score.
Under “fitted relative affinity”, `TTAGGACTGGACTTTCTGTTAGTGCTA` is recorded as 1.31 z-score.
`TTAGGACTGAGGACTGGGTTAGTGCTA`: “fitted relative affinity” -0.828 z-score.
`TGCATTCCCTTTCTCAACCTGTGCTAG`: “fitted relative affinity” 3.24 z-score.
For `TTAGATATCAGTATCTATTAGTGCTAG`, “fitted relative affinity” read 0.304 z-score.
`GACGGACTGAGGACTGGGGACGTGCTA` — result for “fitted relative affinity”: -0.958 z-score.

For quick reference, copied from above (sample 2):
With `GGAAGAUAAGAUUUCUGUCUACUAAGUGAUGCUGUGAUACCUUAGGCACUAAAGCAGAGCUAGUAAUGCUUUUUGAGUUUCAUGUUGGUUUAUUUUCACAGAUUGGGGUAACGUGCACUG` the bound/input enrichment was 0.204 ratio.
The bound/input enrichment of `AGAUACUUGCAAAAUAGAUCUCGAAUUCAGGUGUGGCUGUAUGAACAAGUGAAUAUGCGGAUAGAAGGUUGUAUUAUUGGCUUUGAUGAGUACAUGAACCUCGUAUUAGAUGAUGCAGAA` is reported as 0.726 ratio.
For `CCUGCAAUUGUUCAUAUUAACCACCAGCCAUACUUGGAAAGGGGAGAUGGCCCAAUCUGUCUAGUUCUGGCUCCUACCAGAGAGCUUGCCCAGCAAGUACAGCAGGUGGCCGAUGACUAU`, the bound/input enrichment was 0.202 ratio.
For `CCACCUCUAGCUUUCUUCCUACCCCAUUCCCGGCUUCCCUCCUCCUCCCCUGCAGCCUGGUUAGGUGGAUACCUGCCCUGACAUGUGAGGCAAGCUAAGGCCUGGAGGGUCAGAUGGGAG`, the bound/input enrichment was 0.324 ratio.
For `CUGAUAAAUGGUUUUGGAUCUUCUUCAGAGGGUUCCUCAGAGAAGCAAUCAAACUCCACUCUUUCUUUUGACUGGAGCCAACCAAGUGUUGUGUUUCAGGAUGACUCUUUAGAGUUAAAA`, the bound/input enrichment was 0.101 ratio.
`AAGAGCAGGGGGAGUAAUUUCAGUGCAAGUCAGAGCACUGACGACAACCUCCCAAACACCACCAGUGACUGUAGGCUCGAGGGCGAGGCCCCUUAUCUGUUGAGUCCAGAGGCUGGGCCA` gave a bound/input enrichment of 0.091 ratio.
